Experimental data of several laboratories.
A part holds a random share of what one study measured. Several values in a cell are separate wells, animals, samples, runs or records. Substitutions count along the parent as printed.

Series 1
Cell line: Huh-7
Concentration: 10 µM
Time: 24 h
Quantity: viability
Cc1onc(-c2ccccc2)c1C(=O)N[C@@H]1C(=O)N2[C@@H]1SC(C)(C)[C@@H]2C(=O)O: 100%
CC1(C)S[C@@H]2[C@H](NC(=O)COc3ccccc3)C(=O)N2[C@H]1C(=O)O: 100%
Nc1ccc(S(=O)(=O)Nc2ccccn2)cc1: 102%
CCN(CC)CCOCCOC(=O)C1(c2ccccc2)CCCC1: 93.9%
COCCCOc1cc(C[C@@H](C[C@H](N)[C@@H](O)C[C@H](C(=O)NCC(C)(C)C(N)=O)C(C)C)C(C)C)ccc1OC: 101%
CN1CCCC(n2nc(Cc3ccc(Cl)cc3)c3ccccc3c2=O)CC1 (stereo not drawn): 100%
OCCN1C[C@H](O)[C@@H](O)[C@H](O)[C@H]1CO: 96.8%

Series 2
Compound: CC(C)n1cnc(-c2ccc(F)cc2)c1-c1ncc(C(=O)Nc2ccc(N3CCN(C)CC3)cc2)[nH]1
Method: phase 2a trial
Species: idiopathic pulmonary fibrosis patients
Quantity: patients with respiratory failure
all arms, grade 4 emergent event: 0%
all arms, grade 5 emergent event: 0%
30 mg once daily, grade 2 emergent event: 0%

Series 3
Target: CEP164, C-terminal peptide (human)
Method: DHFR complementation, deep sequencing
Matrix: yeast
Notes: single substitutions, model-inferred values
Relative to: wild type
Reading: higher = weaker binding
Quantity: binding free energy change
Parent: PDZK1, PDZ domain 2 (human); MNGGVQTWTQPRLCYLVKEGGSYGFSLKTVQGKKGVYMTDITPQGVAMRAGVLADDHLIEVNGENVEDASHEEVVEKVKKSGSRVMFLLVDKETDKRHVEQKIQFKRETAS; partner HNRVKVYRF
K102D: -0.0476 kcal/mol
K106H: -0.0922 kcal/mol
Y15F: -0.0669 kcal/mol
L89S: 1.06 kcal/mol
D91R: -0.0297 kcal/mol
D56A: 0.065 kcal/mol
M48S: -0.0882 kcal/mol
N2S: -0.131 kcal/mol

Series 4
Cell line: HaCaT
Concentration: 100 µM
Time: 36 h
Quantity: viability
COc1ccc2cc1Oc1ccc(cc1)C[C@H]1c3c(cc4c(c3Oc3cc5c(cc3OC)CCN(C)[C@@H]5C2)OCO4)CCN1C: 7.63%
CC1(C)O[C@@H]2C[C@H]3[C@@H]4C[C@H](F)C5=CC(=O)C=C[C@]5(C)[C@H]4[C@@H](O)C[C@]3(C)[C@]2(C(=O)CO)O1: 72.2%
CCOc1cc(N)c(Cl)cc1C(=O)NCC1CN(Cc2ccc(F)cc2)CCO1 (stereo not drawn): 86.4%
CCCc1nc2c(C)cc(-c3nc4ccccc4n3C)cc2n1Cc1ccc(-c2ccccc2C(=O)O)cc1: 40.7%
CC(=O)OCC(=O)[C@@]1(O)CC[C@H]2[C@@H]3CCC4=CC(=O)C=C[C@]4(C)[C@H]3[C@@H](O)C[C@@]21C: 98.4%

Series 5
Target: Cytoplasmic tyrosine-protein kinase BMX (BMX, Homo sapiens, UniProt P51813)
Effect on: enzyme activity
Action: inhibitor
Concentration: 0.5 µM
Relative to: control
Quantity: remaining activity
Construct (P51813 1-675): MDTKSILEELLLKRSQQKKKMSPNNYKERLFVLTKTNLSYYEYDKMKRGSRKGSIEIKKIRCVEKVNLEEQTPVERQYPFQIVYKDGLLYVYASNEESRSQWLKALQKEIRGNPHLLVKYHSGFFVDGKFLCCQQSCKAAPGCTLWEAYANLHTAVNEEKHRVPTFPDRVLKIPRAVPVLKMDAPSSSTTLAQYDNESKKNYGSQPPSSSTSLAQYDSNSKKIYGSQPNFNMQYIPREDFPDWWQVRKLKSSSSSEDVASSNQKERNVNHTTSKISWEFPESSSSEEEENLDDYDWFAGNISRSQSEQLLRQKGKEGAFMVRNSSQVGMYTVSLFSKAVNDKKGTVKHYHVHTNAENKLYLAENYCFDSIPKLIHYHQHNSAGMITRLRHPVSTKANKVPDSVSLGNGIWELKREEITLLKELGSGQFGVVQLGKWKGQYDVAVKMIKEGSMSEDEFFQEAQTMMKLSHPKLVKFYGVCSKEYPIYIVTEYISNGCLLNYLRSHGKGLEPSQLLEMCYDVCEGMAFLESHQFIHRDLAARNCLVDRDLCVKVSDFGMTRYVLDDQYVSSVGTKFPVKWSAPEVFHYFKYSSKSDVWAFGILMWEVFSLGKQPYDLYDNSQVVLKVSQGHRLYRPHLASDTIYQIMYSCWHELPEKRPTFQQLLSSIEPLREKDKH
O=C(O)/C=C/c1cc(Br)c(Br)c(Br)c1Br: 97%
NC(=O)c1cccc(-c2cc(Nc3ccc(OC(F)(F)F)cc3)ncn2)c1: 107%
NC(=O)c1ccc(-c2nc(-c3ccc4c(c3)OCCO4)c(-c3ccccn3)[nH]2)cc1: 100%
O=C1NC(=O)/C(=C/c2ccc3c(c2)OC(F)(F)O3)S1: 99.6%
c1cc(-c2cnn3cc(-c4ccc(OCCN5CCCCC5)cc4)cnc23)ccn1: 95.4%
N#CC(c1ccnc(NCCc2cccnc2)n1)c1nc2ccccc2s1 (stereo not drawn): 92.9%
CC(C)n1cnc2c(Nc3cccc(Cl)c3)nc(NCCO)nc21: 92.5%
O=C1c2ccccc2-c2nc3nnnn3nc21: 79%
O=c1c(-c2ccc(F)cc2)c(-c2ccncc2)[nH]n1-c1ccc(Cl)cc1: 95.8%
CC(C)(C)c1nc2c3cc[nH]c(=O)c3c3cc(F)ccc3c2[nH]1: 71.9%
CCN(CC)CCCCN1c2ccccc2Oc2ccc(Cl)cc21: 104%
CCCCc1c(-c2ccc(O)cc2)[nH]c2nccnc12: 86.8%
O=C(c1ccccc1)c1ccc(N2CCOCC2)cc1O: 90.4%
Clc1ccc(Nc2nnc(Cc3ccncc3)c3ccccc23)cc1: 106%
N#C/C(=C(/N)SC1C=CC=CC1)c1cccc(C(O)c2ccncc2)c1 (stereo not drawn): 81.2%
O=Nc1c(-c2c(O)[nH]c3ccccc23)[nH]c2ccccc12: 80.1%
COc1cc2c(Nc3ccc(Br)cc3F)ncnc2cc1OCC1CCN(C)CC1: 88.4%
Nc1nc(Nc2ccc(S(N)(=O)=O)cc2)nn1C(=S)Nc1c(F)cccc1F: 77.5%
CC(C)N(CCC(=O)c1ccc2ccccc2c1)Cc1ccccc1: 102%

Other studies, line by line
Cn1cncc1[C@@](O)(COc1ccc(C#N)cc1-c1ccc(OC(F)(F)F)cc1)c1ccc(C#N)cc1 — cells with fragmented nuclei (HEK293T; high-content imaging; 10 µM, 0 h): 6.64% and 18.6%
COc1ccc(-c2c(Nc3ccccn3)[nH]c3c(C4=CCCCC4)c(-c4ccccc4)nn3c2=O)cc1 — Cavg (LC-MS/MS; human, plasma; oral, 50 mg once daily): 1380 ng/mL and 1450 ng/mL and 1340 ng/mL
C[C@@H](c1cccc(C#N)c1)n1cc(Cl)cc(C(N)=O)c1=N — viability (sample D normal colon organoid; CellTiter-Glo; 1 µM, mean of replicates; relative to: DMSO): 124%
